Results collected from several papers.
Compare with care: the assays were run in different laboratories. Values joined by “and” are separate records of one study, mostly repeats; a detail may differ. ± gives the spread as reported.

| Structure (SMILES) | tested on | test | system | conditions | endpoint | result |
| --- | --- | --- | --- | --- | --- | --- |
| Cc1nc2cccc(OCC(C)(C)C(=O)NC(C)C)c2c(N)c1C(=O)[O-].[Na+] | Salmonella typhimurium | – | TA1537 | 2.0 mg per plate, with S9, preincubation | revertant colonies per plate | 12 ± 5 |
| Cc1ccc(NC2(C)CN(C)C2)cc1C(=O)N[C@H](C)c1cc(-c2cnn(C)c2)nc2ccccc12 | Vero E6 | – | – | 250 µM | viability | 0.342% and 0% and 0.171% |
| O=c1n(CCNCCOS(=O)(=O)c2ccccc2)c(=O)n(S(=O)(=O)c2ccccc2)c(=O)n1S(=O)(=O)c1ccccc1 | HUVEC | cell growth or viability, MTT | – | 200 µg/mL, 24 h | viability | 35.2% |
| COc1ccc2c3c1O[C@H]1[C@@H](O)C=C[C@H]4[C@@H](C2)N(CC2CCC2)CC[C@@]341 | – | PAMPA-BBB | porcine brain lipid | 500 µM, 4 h, pH 7.4, 1% DMSO | Papp | 53.5 ×10⁻⁶ cm/s |
| O=C1NC2(CC2)COc2ncc(F)cc2[C@H]2COCCN2c2ccn3ncc1c3n2 | – | – | Sprague-Dawley rat, male, serum | oral, 2.5 mg/kg/day, 4 weeks daily, end of treatment | gamma-glutamyltransferase activity | 0.2 ± 0.1 U/L |
| CC(C)N1CN(C2c3ccccc3CSc3ccccc32)n2cc(C(=O)O)c(=O)c(O)c2C1=O (stereo not drawn) | – | – | bovine cells | – | CC50 | > 10 µM |
| Cc1ccc(N(C)C2(C)CN(C)C2)cc1C(=O)N[C@H](C)c1cc(-c2cnn(C)c2)nc2ccccc12 | Vero E6 | – | – | 3.906 µM | viability | 97.1% |
| CCCCCC1=C(NCC)C(=O)C(C/C=C(\C)CCC=C(C)C)=C(O)C1=O | human peripheral lymphocytes | – | – | 30 µg/mL, 3 h, without S9, harvest 27 h | cytostasis | 32% |
| Cc1ccc(OCCN(C)C)cc1C(=O)N[C@H](C)c1cc(-c2cnn(CC(=O)N(C)C)c2)nc2ccccc12 | Vero E6 | – | – | 3.906 µM | viability | 98% and 95.5% |
| CC(=O)NCCCC[C@@H]1NC(=O)[C@H](Cc2c[nH]c3c(C)cccc23)NC(=O)[C@H]([C@@H](C)O)NC(=O)[C@H](CC(N)=O)NC(=O)[C@@H](NC(C)=O)C(C)(C)SSC(C)(C)[C@@H](C(=O)N[C@@H](Cc2ccc(OCCN)cc2)C(=O)N[C@@H](Cc2ccc3ccccc3c2)C(=O)NC2(C(=O)N[C@@H](CCC(=O)O)C(=O)N[C@@H](CC(N)=O)C(=O)N[C@@H](Cc3cccnc3)C(=O)N(C)CC(N)=O)CCOCC2)NC1=O | Albumin (ALB, Homo sapiens, UniProt P02768) | equilibrium dialysis | purified human albumin | 1 µM | protein binding | 35.9 ± 2.1 % bound |
| Cc1ccc(N(C)CCN2CCOCC2)cc1C(=O)N[C@H](C)c1cc(-c2cnn(C)c2)nc2ccccc12 | Vero E6 | – | – | 500 µM | viability | 25.4% and 13.1% and 20.4% |
| COc1ccc2c3c1O[C@H]1C(=O)CC[C@@]4(O)[C@@H](C2)N(CCc2ccccc2)CC[C@]314 | – | – | octanol/buffer | 1 h, pH 7.4 | logD | 2.38 |

For quick reference, copied from above:
| Structure (SMILES) | tested on | test | system | conditions | endpoint | result |
| --- | --- | --- | --- | --- | --- | --- |
| CC(=O)NCCCC[C@@H]1NC(=O)[C@H](Cc2c[nH]c3c(C)cccc23)NC(=O)[C@H]([C@@H](C)O)NC(=O)[C@H](CC(N)=O)NC(=O)[C@@H](NC(C)=O)C(C)(C)SSC(C)(C)[C@@H](C(=O)N[C@@H](Cc2ccc(OCCN)cc2)C(=O)N[C@@H](Cc2ccc3ccccc3c2)C(=O)NC2(C(=O)N[C@@H](CCC(=O)O)C(=O)N[C@@H](CC(N)=O)C(=O)N[C@@H](Cc3cccnc3)C(=O)N(C)CC(N)=O)CCOCC2)NC1=O | Albumin (ALB, Homo sapiens, UniProt P02768) | equilibrium dialysis | purified human albumin | 1 µM | protein binding | 35.9 ± 2.1 % bound |
